Published values pooled from the literature.
Each numbered part is a random draw from the data of one study; scales do not carry over between parts.

Series 1
Target: Interferon regulatory factor 5, full length, phosphomimetic (IRF5, Homo sapiens, UniProt Q13568-2, residues 1-514, S451D/S453D/S456D/S462D)
Method: protein-binding microarray
Form: double-stranded DNA, one strand shown
Medium: in vitro
Tested at: 940 nM top
Setting: 60-bp whole probe
Added: salmon DNA 0.4 mg/ml
Reference: random background probes
Direction: higher = stronger binding
All sequences stand within: GCCTAGCAC … GTCTTGATTCGCTTGACGCTGCTG
Sequence	fitted relative affinity
TCATACATCTCTCTTAAACTGTGCTAG	1.24 z-score
TTAGGTTTCGGGTTTCGGTTGGTGCTA	10.6 z-score
GTAGATATCAGACTGGATTAGTGCTAG	-0.402 z-score
AACGATTTCAGTTTCGAGACGTGCTAG	5.03 z-score
TTCGGTCTCCTTCTCCTTTAGTGCTAG	1.02 z-score
TCATGTTTGGTGTCTTTTACTGTGCTA	1.22 z-score
TCATATTAGAGTCTCAAACTGTGCTAG	0.124 z-score
GACGGACTGGGTCTCTGGACGTGCTAG	-0.867 z-score
TTAGGGCTGGGGACTGGGTTAGTGCTA	-0.337 z-score
GACGGTCTGGGTTTCGGGACGTGCTAG	3.07 z-score
TTAGATCTCAGTCTCGATGAGTGCTAG	2.24 z-score
GACGATATCGGGTTTCGTGACGTGCTA	1.1 z-score
TCAACTTTCTTTACTTCACTGTGCTAG	1.85 z-score
TTAGGTCTCCTTTTCCGTTAGTGCTAG	0.902 z-score
GACGGTTTCGACTATCGGAACGTGCTA	8.52 z-score
TTAGATTTCGGGACTGGTTTAGTGCTA	0.755 z-score
CTAGAACTGAGTATCGATTAGTGCTAG	4.34 z-score

Series 2
Target: Histone acetyltransferase KAT6A, winged helix 2, GST fusion (KAT6A, Homo sapiens, UniProt Q92794, residues 85-181)
Method: protein binding microarray
Form: double-stranded DNA, one strand shown
Medium: in vitro
Tested at: not given
Setting: 8-mer, flanks averaged, mean of 2 arrays, mostly near background
Reference: not given
Direction: higher = stronger binding
Target sequence (chain): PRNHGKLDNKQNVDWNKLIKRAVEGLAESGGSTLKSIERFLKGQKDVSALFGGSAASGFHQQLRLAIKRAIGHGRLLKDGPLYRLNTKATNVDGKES
Sequence	E-score
AGAGTTTC	0.0218
GGGGGCGA	0.092
AAGGCAGC	0.00152
AGCGCATC	0.0803
CATTTCCC	0.105
ATCCATCC	0.0442
AATCCAAA	-0.00369
ATTGCTTA	0.0235
CGTGCATA	-0.0284
CCCAGAGG	0.0479
GCGAAGCA	0.229
GGAGTACC	-0.102
CGAAGCCC	0.0175
AGTGCAAT	0.0415
TCAGCAAA	0.201
AGGAGATG	-0.132
ACCTTTCA	-0.0546
AGTGTTGG	-0.0838
CCCAAGAA	0.119
AACGGATG	0.0115
ACGTTCGC	-0.0769
ACGTTGAA	-0.0401

Series 3
Target: Centromere-binding protein 1, full length, His-tagged (CBF1, Saccharomyces cerevisiae, UniProt P17106, residues 1-351)
Chain of UniProt P17106 (whole entry, looked up): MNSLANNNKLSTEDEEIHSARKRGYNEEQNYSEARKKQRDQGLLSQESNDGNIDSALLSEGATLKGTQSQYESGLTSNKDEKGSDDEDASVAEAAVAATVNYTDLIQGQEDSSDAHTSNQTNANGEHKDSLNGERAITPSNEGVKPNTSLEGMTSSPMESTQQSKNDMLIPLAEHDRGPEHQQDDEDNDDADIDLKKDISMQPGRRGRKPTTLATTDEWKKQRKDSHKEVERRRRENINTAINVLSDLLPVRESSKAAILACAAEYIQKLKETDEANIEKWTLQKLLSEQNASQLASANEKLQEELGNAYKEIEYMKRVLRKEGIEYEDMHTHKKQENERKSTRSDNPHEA
Method: competition protein-binding microarray
Form: double-stranded DNA, one strand shown
Medium: in vitro
Tested at: 2 µM
Setting: whole 60-bp probe, lowest competitor level
Added: Pho4 competitor, 0.05 µM
Direction: higher = stronger binding
All sequences stand within: … GTCTTGATTCGCTTGACGCTGCTG
Sequence	fluorescence intensity [a.u.]
TGGGATAATATCTTCCACGTGATGGTTGAACAACCA	3050
CCTTTGGAGCAGAGGCACCTGATAATGGAAGCGGTG	110
GATGGAGGATGCCCCCATGTGCTGATTCTCCCCGTA	96
GTTTGGTCCTATCAACATGTGCCGAGAATTGTCGGA	245
CGGGGTTAAGTTTGGCTAGTGGGTGGCTTGCAGCAG	69.2
TTTCTCATATACCGTCACGTGGCCGGATGTTTATCG	5110
TTCACAGATATTTCTTCCGTGATGGTTTAATGGTCA	93.8
AGAGGCCCCAGGAGCAACGTGATGGTATAACTGCCC	178
TGCGCAACAACTTGCGTTGTGGGTGTATGTCTAGAA	65.4
AGCGGCCGCAGAACTCACGTGGCAGCTGAACCCTCC	828
GCCCTGTTGGAGGCCATCGTGGTCGCCAAGAAAGCA	58
CGTCCTAGCGATTGAATAGTGGGTGCCATGAGGAAG	77.8
ATCCTAGCCCTAACGCATGTGCTACTTCAAGGAATT	112
CAATCTGCGAATGCATCCGTGCCAGAATGAAACGGC	74.3
AGTATCCTCGACCTACACGTCTTCACCATCGGCTTC	61.6
CACAAGGCCCAATCAATGGTGGTATCGAAGTTACAT	81
TGCGCAACAACTTGCATAGTGGGTGTATGTCTAGAA	65.1

Series 4
Target: Fragile X messenger ribonucleoprotein 1, C-terminal low-complexity region (Fmr1, Mus musculus, UniProt P35922)
Method: RNA Bind-n-Seq
Form: RNA
Medium: in vitro
Tested at: 200 nM
Setting: whole 134-nt RNA, ends assumed
Added: 150 mM LiCl
Reference: input library
Direction: higher = stronger binding
All molecules: 7-deaza-guanosine replaces G
All sequences stand within: GGGAGUUCUACAGUCCGACGAUC … UGGAAUUCUCGGGUGUCAAGG
Sequence	log2 enrichment
CACAGACAACACGCACCCACACAGACACAGAGGGAAGGGGUUGGGAUGGGGACAGGGUGCACAGCAGAGCGGGGUAGGACCCCAGCCCCU	0.436
UGGGAGGUGGAUUUUGUUUAUUUUUUUAGCUCAUUUCCAGGGGUGGGAAUUUUUUUUUAAUAUGUGUCAUGAGUAAAGUUGUUUUUGAAA	0.866
GCAGGAAGUAAAAACAAAUGGAAAUGCUUCGGAUAGUGGCAGUGGUGGGGGUUGCUAAGGAAAGGGUGGGAUGGGAGUGGGUAAAGAGUU	1.39
UCAAGUCCUGUGCUACACAUCGUAUGUACCGAAUCGGCCCGGCCCGGGGCCCGGAAAGUAUUAUGUUACGCCGUUCGGAUCUGCACUUCC	-1.06
GUCCUGUGCUACACAUCGUAUGUACCGAAUCGGGGUUUGGGGUUUGGGGUUUUUGGGGAAAGUAUUAUGUUACGCCGUUCGGAUCUGCAC	-0.817
UCCUGUGCUACACAUCGUAUGUACCGAAUCGGUUUUUUGGGUUUUUUGGUUUUUUGGGGAAAGUAUUAUGUUACGCCGUUCGGAUCUGCA	-1.04
AGUCCUGUGCUACACAUCGUAUGUACCGAAUCAAAUUUUUUUAAACCCAAAUUUAAAAAAGUAUUAUGUUACGCCGUUCGGAUCUGCACU	-3.12
UCAAGUCCUGUGCUACACAUCGUAUGUACCGAAUCGGAAAAAGGUGGUUUUUGGAAAGUAUUAUGUUACGCCGUUCGGAUCUGCACUUCC	-0.538
CACAGACAACACGCACCCACACAGAUACAGAGGGAAGGGGUUGGGAUGGGGACAGGGUGCACAGCAGGGCGGGGUAGGACCCCAGCCCCU	0.633
AGUCCUGUGCUACACAUCGUAUGUACCGAAUCGGGAAAAAGGGAAAGGGAAAAAGGGAAAGUAUUAUGUUACGCCGUUCGGAUCUGCACU	-0.762
ACCCUGCAGGUGGGCAUCUUUGGGAAGUGGGGCAAGGGGGGGAUAGGGAGGGGGGUAACACUUUGGGAACAGGUGGUCCCAGGUCGUUUC	0.974

Series 5
Target: Prothrombin, mature alpha-thrombin (F2, Homo sapiens, UniProt P00734)
Method: aptamer microarray, sandwich
Form: DNA with 2'F-ANA
Medium: in vitro
Tested at: 200 nM
Setting: whole 15-mer aptamer, many near background
Added: Cy3 exosite-II aptamer, 400 nM
Direction: higher = stronger binding
Sequence: GGTTGGTGTGGTTGG
Modification	mean fluorescence intensity [a.u.]
2'F-ANA at 1 3 4 5 7 12	158
2'F-ANA at 3 6 7 10 11 13	482
2'F-ANA at 3 4 5 6 7 9 10 11 12	60.2
2'F-ANA at 1 2 6 9 10 13	50.9
2'F-ANA at 1 2 3 5 7 10 13 14 15	49.9
2'F-ANA at 2 4 10 11 12 13 14	62.3
2'F-ANA at 2 4 5 6 9 12 13 14	61.5
2'F-ANA at 2 4 5 7 8 9 10 11 12 13 15	49.5
2'F-ANA at 2 3 6 7 8 13	681
2'F-ANA at 1 2 4 5 7 8 10 11 12	55.8
2'F-ANA at 1 6 7 9 10 12	66.2
2'F-ANA at 1 3 4 6 9 12 13 14	66.6
2'F-ANA at 4 6 10 11 12 15	90.5
2'F-ANA at 3 5 7 8 10 14 15	106
2'F-ANA at 1 4 5 6 7 8 9 10 11 12 13 15	52.5
2'F-ANA at 2 7 8 9 10 11 12 14	510
2'F-ANA at 2 5 7 9 10 14 15	47
2'F-ANA at 2 6 7 9 11 13	243
